Measured values collected from several papers.
A part holds a random share of what one study measured. Several values in a cell are separate wells, animals, samples, runs or records.
Sequence of UniProt P51956 (whole entry, looked up): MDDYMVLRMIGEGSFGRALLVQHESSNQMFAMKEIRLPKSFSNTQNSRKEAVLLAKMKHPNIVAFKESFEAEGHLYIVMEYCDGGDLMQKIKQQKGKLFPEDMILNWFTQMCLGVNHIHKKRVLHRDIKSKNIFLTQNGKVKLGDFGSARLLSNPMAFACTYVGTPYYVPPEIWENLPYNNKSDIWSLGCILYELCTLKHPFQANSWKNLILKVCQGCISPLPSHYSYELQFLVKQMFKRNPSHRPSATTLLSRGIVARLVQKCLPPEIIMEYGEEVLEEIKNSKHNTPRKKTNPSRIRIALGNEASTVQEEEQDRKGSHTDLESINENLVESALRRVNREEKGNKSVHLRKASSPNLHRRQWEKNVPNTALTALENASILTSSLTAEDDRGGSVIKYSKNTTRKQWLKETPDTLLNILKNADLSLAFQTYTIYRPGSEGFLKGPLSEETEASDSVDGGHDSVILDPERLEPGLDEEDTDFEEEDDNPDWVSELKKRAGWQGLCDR
Sequence of UniProt P36897 (whole entry, looked up): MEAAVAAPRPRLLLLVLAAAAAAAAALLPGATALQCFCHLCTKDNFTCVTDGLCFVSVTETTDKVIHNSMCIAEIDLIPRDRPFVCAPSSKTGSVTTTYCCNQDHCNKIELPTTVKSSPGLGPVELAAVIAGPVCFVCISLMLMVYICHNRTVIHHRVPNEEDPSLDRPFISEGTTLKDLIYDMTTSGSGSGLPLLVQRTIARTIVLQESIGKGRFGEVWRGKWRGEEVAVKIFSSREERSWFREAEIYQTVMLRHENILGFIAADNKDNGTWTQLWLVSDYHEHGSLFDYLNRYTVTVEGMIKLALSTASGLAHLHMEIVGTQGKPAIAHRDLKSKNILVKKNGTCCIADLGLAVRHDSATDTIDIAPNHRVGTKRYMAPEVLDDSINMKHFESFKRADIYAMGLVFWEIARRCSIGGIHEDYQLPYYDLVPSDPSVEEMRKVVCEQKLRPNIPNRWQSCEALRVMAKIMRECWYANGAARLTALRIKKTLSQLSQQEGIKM
Sequence of UniProt P51813 (whole entry, looked up): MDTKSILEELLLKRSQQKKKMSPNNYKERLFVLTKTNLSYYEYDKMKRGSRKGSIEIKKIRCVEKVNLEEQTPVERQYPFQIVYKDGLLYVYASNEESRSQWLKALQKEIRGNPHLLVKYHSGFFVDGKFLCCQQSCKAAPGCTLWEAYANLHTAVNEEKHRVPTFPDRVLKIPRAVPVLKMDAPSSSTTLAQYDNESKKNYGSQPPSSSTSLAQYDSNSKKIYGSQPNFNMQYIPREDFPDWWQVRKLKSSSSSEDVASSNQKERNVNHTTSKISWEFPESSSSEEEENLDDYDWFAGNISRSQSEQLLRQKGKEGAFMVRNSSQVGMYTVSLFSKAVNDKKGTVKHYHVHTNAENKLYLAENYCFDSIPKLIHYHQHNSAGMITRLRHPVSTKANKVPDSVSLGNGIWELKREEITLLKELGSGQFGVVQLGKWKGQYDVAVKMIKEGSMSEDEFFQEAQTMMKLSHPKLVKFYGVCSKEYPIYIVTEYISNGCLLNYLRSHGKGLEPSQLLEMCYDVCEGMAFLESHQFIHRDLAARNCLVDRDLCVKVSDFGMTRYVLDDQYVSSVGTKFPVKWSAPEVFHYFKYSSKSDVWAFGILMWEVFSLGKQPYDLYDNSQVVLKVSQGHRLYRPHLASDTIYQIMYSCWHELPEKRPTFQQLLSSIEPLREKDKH
Sequence of UniProt Q9UL54 (whole entry, looked up): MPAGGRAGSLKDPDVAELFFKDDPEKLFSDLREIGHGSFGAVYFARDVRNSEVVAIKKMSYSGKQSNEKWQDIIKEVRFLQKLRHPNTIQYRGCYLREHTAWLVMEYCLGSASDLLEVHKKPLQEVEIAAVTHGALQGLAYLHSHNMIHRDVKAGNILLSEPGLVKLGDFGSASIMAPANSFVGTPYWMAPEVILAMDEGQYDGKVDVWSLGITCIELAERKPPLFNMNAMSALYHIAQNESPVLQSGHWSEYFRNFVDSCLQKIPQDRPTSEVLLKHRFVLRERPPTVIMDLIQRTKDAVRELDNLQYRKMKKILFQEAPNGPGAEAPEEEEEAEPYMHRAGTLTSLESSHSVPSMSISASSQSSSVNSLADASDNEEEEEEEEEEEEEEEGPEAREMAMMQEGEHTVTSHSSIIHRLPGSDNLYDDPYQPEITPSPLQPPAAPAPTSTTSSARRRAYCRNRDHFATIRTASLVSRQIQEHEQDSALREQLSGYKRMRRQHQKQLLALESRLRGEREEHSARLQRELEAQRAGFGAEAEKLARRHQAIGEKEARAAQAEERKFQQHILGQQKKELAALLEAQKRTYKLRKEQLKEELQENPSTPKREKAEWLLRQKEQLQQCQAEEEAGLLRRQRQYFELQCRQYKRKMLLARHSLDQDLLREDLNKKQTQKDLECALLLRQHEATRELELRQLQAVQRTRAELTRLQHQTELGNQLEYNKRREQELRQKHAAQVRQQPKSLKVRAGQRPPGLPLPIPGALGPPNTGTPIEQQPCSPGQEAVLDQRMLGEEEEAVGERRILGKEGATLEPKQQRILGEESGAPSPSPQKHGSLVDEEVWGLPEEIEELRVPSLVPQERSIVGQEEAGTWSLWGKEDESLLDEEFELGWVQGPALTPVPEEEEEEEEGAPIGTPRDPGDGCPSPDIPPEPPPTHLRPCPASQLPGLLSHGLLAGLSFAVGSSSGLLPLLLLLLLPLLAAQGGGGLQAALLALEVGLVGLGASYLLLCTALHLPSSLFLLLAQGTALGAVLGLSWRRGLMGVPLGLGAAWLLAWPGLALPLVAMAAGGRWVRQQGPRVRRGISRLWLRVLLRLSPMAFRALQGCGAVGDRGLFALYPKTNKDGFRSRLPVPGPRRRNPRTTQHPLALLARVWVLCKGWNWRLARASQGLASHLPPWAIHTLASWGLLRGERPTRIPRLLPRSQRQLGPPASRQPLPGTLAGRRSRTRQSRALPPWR
Sequence of UniProt Q15349 (whole entry, looked up): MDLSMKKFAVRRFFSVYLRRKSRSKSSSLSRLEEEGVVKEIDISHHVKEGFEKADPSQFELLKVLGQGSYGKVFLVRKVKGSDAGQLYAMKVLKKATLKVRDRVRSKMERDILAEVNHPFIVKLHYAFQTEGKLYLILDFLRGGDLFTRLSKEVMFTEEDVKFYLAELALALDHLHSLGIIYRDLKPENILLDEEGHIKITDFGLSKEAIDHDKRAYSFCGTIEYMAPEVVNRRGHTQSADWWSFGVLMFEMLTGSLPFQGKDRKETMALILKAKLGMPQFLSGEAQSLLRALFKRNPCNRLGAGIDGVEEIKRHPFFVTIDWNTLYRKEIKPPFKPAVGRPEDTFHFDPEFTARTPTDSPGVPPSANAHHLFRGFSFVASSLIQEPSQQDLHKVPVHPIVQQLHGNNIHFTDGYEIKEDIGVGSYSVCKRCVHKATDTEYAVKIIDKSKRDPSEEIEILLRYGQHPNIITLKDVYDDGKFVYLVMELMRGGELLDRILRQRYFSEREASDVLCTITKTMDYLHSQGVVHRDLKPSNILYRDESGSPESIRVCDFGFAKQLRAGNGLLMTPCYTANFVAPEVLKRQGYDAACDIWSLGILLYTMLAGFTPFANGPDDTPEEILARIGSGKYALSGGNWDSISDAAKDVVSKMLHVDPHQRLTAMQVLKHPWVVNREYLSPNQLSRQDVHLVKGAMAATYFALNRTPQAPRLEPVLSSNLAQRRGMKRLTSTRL

Set 1 — cell line: HEK-293T-ACE2; method: Hoechst nuclei count; tested at: concentration not given; setting: counter-screen; baseline: vehicle
With `CNC(=O)c1ccc(N2C(=S)N(c3ccc(C#N)c(C(F)(F)F)c3)C(=O)C2(C)C)cc1F` the cell number was 97.6%.
`N=C(N)NCCN1CCCCCCC1.O=S(=O)(O)O` has a cell number of 106%.
For `CCOc1cc([C@@H](CS(C)(=O)=O)N2C(=O)c3cccc(NC(C)=O)c3C2=O)ccc1OC`, the cell number was 98%.
The cell number of `CO[C@H]1C[C@@H]2CC[C@@H](C)[C@@](O)(O2)C(=O)C(=O)N2CCCC[C@H]2C(=O)O[C@H]([C@H](C)C[C@@H]2CC[C@@H](OC(=O)C(C)(CO)CO)[C@H](OC)C2)CC(=O)[C@H](C)/C=C(\C)[C@@H](O)[C@@H](OC)C(=O)[C@H](C)C[C@H](C)/C=C/C=C/C=C/1C` is reported as 104%.
`CCN[C@@H]1C[C@H](N)[C@@H](O[C@H]2OC(CN)=CC[C@H]2N)[C@H](O)[C@H]1O[C@H]1OC[C@](C)(O)[C@H](NC)[C@H]1O.CCN[C@@H]1C[C@H](N)[C@@H](O[C@H]2OC(CN)=CC[C@H]2N)[C@H](O)[C@H]1O[C@H]1OC[C@](C)(O)[C@H](NC)[C@H]1O.O=S(=O)(O)O.O=S(=O)(O)O.O=S(=O)(O)O.O=S(=O)(O)O.O=S(=O)(O)O` gave a cell number of 97.7%.
For `CNC(=O)c1cnn(-c2nc(N)c3ncn([C@@H]4O[C@H](CO)[C@@H](O)[C@H]4O)c3n2)c1`, the cell number was 99.6%.
`CN1CCc2nc(C(=O)N[C@@H]3C[C@@H](C(=O)N(C)C)CC[C@@H]3NC(=O)C(=O)Nc3ccc(Cl)cn3)sc2C1.Cc1ccc(S(=O)(=O)O)cc1.O` has a cell number of 106%.
`CCCCCCCCc1ccc(CCC(N)(CO)CO)cc1.Cl` has a cell number of 81.7%.
With `COc1cc2nccc(Oc3ccc(NC(=O)C4(C(=O)Nc5ccc(F)cc5)CC4)cc3)c2cc1OC` the cell number was 87.7%.
With `CNC(=O)c1cc(Oc2ccc(NC(=O)Nc3ccc(Cl)c(C(F)(F)F)c3)c(F)c2)ccn1` the cell number was 96.3%.
For `CC(C)C[C@H](NC(=O)CNC(=O)c1cc(Cl)ccc1Cl)B(O)O`, the cell number was 57.4%.
With `CC(=O)OC(C)OC(=O)C(C)c1ccc(-c2ccccc2)c(F)c1` (stereo not drawn) the cell number was 97.4%.
`Cc1nc2c([nH]1)-c1ccccc1N(C(=O)c1ccc(NC(=O)c3ccccc3-c3ccccc3)cc1)CC2.Cl` gave a cell number of 98.2%.
The cell number of `COC(=O)N[C@H](C(=O)N[C@@H](Cc1ccccc1)[C@@H](O)CN(Cc1ccc(-c2ccccn2)cc1)NC(=O)[C@@H](NC(=O)OC)C(C)(C)C)C(C)(C)C.O=S(=O)(O)O` is reported as 96.4%.
With `Cc1[nH]c2ccccc2c1CCNCc1ccc(/C=C/C(=O)NO)cc1` the cell number was 55.3%.
With `COc1cc2c(cc1OC)CC(=O)N(CCCN(C)C[C@H]1Cc3cc(OC)c(OC)cc31)CC2.Cl` the cell number was 109%.
`C[C@@H](O)[C@H]1C(=O)N2C(C(=O)O)=C(S[C@@H]3CN[C@H](CNS(N)(=O)=O)C3)[C@H](C)[C@H]12.O` has a cell number of 105%.
`OC[C@H]1O[C@@H](c2ccc(Cl)c(Cc3ccc(O[C@H]4CCOC4)cc3)c2)[C@H](O)[C@@H](O)[C@@H]1O` has a cell number of 99.8%.
`CCCS(=O)(=O)Nc1ccc(F)c(C(=O)c2c[nH]c3ncc(-c4ccc(Cl)cc4)cc23)c1F` has a cell number of 106%.
For `CN(C)C/C=C/C(=O)Nc1cc2c(Nc3ccc(F)c(Cl)c3)ncnc2cc1O[C@H]1CCOC1.O=C(O)/C=C\C(=O)O.O=C(O)/C=C\C(=O)O`, the cell number was 99.2%.
With `CC[C@H]1OC(=O)[C@H](C)[C@@H](O[C@H]2C[C@@](C)(OC)[C@@H](O)[C@H](C)O2)[C@H](C)[C@@H](O[C@@H]2O[C@H](C)C[C@H](N(C)C)[C@H]2O)[C@](C)(O)C[C@@H](C)CN(C)[C@H](C)[C@@H](O)[C@]1(C)O` the cell number was 100%.

Set 2 — cell line: HEK-293T-ACE2-TMPRSS2; method: cell count; tested at: 10 µM
With `CC(C)(C)NC(=O)NC(=O)Cn1ncc(Cl)c(Cl)c1=O` the viability was 73%.
`COc1cc(-n2ccnc2)cc(OC)c1OC` gave a viability of 65%.
`COC1=C2C[C@@H](C)C[C@H](OC)[C@H](O)[C@@H](C)/C=C(\C)[C@H](OC(N)=O)[C@@H](OC)/C=C\C=C(/C)C(=O)NC(=CC1=O)C2=O` has a viability of 78%.
The viability of `CCC(C)(C(=O)NC1CCCCC1)N(Cc1ccco1)C(=O)CNC(C)=O` (stereo not drawn) is reported as 106%.
`CN(C)S(=O)(=O)c1cccc(Cn2ncc(Cl)c(Cl)c2=O)c1` has a viability of 78%.
The viability of `CC(C)=CCC[C@]1(C)C=Cc2c(O)c3c(c(CC=C(C)C)c2O1)O[C@]12C(=C[C@@H]4C[C@H]1C(C)(C)OC2(C/C=C(/C)C(=O)O)C4=O)C3=O` is reported as 101%.
With `CCN(CC)c1ccc2cc(-c3nc(-c4ccccc4)cs3)c(=O)oc2c1` the viability was 108%.
`O=C(NCC(F)(F)F)c1ccc(CN(Cc2cc(Cl)cc3c2OCOC3)C2CC2)cc1` has a viability of 101%.

Set 3 — cell line: mouse MPNST tumor cells; method: high-content nuclear imaging; measured: cell number; tested at: 10 µM; time: 12 h; setting: mean of 2 replicates; baseline: plate mean; direction: higher = more cells
For `O=C1NC(=O)c2c1c1c3ccccc3n3c1c1c2c2ccccc2n1[C@H]1CC[C@@H]3O1`, the nuclei count was -1.8 z-score.
`CN(C)C(=O)Oc1ccc[n+](C)c1` gave a nuclei count of 0.254 z-score and 0.604 z-score.
`Cc1nnc2n1-c1sc(CCC(=O)N3CCOCC3)cc1C(c1ccccc1Cl)=NC2` has a nuclei count of 1.35 z-score.
For `C[C@]12CCC(=O)C=C1C=C[C@@H]1[C@@H]2CC[C@@]2(C)[C@H]1CC[C@@]2(O)CCC(=O)O`, the nuclei count was -1.13 z-score.
`CC(=O)OCC1=C(C(=O)O)N2C(=O)C(N)C2SC1` (stereo not drawn) gave a nuclei count of -0.246 z-score.
The nuclei count of `CC(C)(Cc1c[nH]c2ccc(Cl)cc12)NCCOc1ccccc1OCC1CC1` is reported as -5.74 z-score.
`NCCc1c[nH]c2ccc(O)cc12` gave a nuclei count of -0.694 z-score.
The nuclei count of `CCP(=O)(O)CCCN` is reported as 0.816 z-score.

Set 4 — Compound: CC(C)(C)c1cc(C=C(C#N)C#N)cc(Br)c1O; effect on: enzyme activity; mode: inhibitor; tested at: 0.5 µM
The remaining activity was 96.5% (TAOK2 (Homo sapiens, UniProt Q9UL54); baseline: control).
It gave 103% for remaining activity (TGFBR1 (Homo sapiens, UniProt P36897)).
The remaining activity was 98.9% (RPS6KA2 (Homo sapiens, UniProt Q15349); baseline: control).
It gave 113% for remaining activity (BMX (Homo sapiens, UniProt P51813)).
The remaining activity was 96.6% (NEK3 (Homo sapiens, UniProt P51956)).

Excerpt of the above (set 4):
The remaining activity was 96.6% (NEK3 (Homo sapiens, UniProt P51956)).
It gave 113% for remaining activity (BMX (Homo sapiens, UniProt P51813)).
